Measured values of several laboratories.
Compare with care: the assays were run in different laboratories. ± gives the spread as reported.

Under “mean blood pressure change”, `CCN1/C(=C/C(C)=O)Sc2ccc(F)cc21` is recorded as 96.7 ± 7.8% (cynomolgus monkey; oral, 100 mg/kg, 24 h post-dose; reference: pre-dose).
`CC[C@H](C)[C@H](NC(=O)[C@H](CCCNC(=N)N)NC(=O)[C@H](CCC(=O)O)NC(C)=O)C(=O)N[C@H]1CSSC[C@@H](C(=O)N[C@H](C(N)=O)[C@@H](C)O)NC(=O)[C@H](CCCNC(=N)N)NC(=O)[C@H](Cc2c[nH]cn2)NC(=O)[C@H](Cc2cccc3ccccc23)NC(=O)CNC(=O)[C@H](Cc2c[nH]c3ccccc23)NC(=O)[C@H](CC(=O)O)NC(=O)[C@H](CCC(N)=O)NC(=O)[C@H](Cc2c[nH]c3ccccc23)NC(=O)[C@H](C(C)C)NC1=O` gave a retention factor of 1.325 ± 0.01 (isocratic RP-HPLC, C18; 32% acetonitrile, phosphate pH 7.4, 1% TFA; 25 °C).
For `CCc1cc(C(=O)NC)c2nccc(N3CCc4c(cc(Cn5ccnc5)cc4-c4cn(C)nc4C(F)(F)F)C3=O)c2c1`, “serum ALT activity” read 59.3 ± 7.5 U/L (Sprague Dawley rats; oral, 100 mg/kg once daily, 7 days).
Under “participants with TEAE”, `Cc1ccc(Sc2ccccc2N2CCNCC2)c(C)c1` is recorded as 0% (measured: Somnolence; healthy adult men; oral, 2.5 mg single dose).
`O=C(COc1ccc(Cl)cc1)NC12CC(c3nnc([C@H]4C[C@@H](OC(F)(F)F)C4)o3)(C1)C2` — result for “treatment-emergent adverse events”: 50% (at least 1 event; human, both sexes; oral, 100 mg, single ascending dose, fed; reference: subjects).
For `CC1(C)CCC(CN2CCN(c3ccc(C(=O)NS(=O)(=O)c4ccc(NCC5CCOCC5)c([N+](=O)[O-])c4)c(Oc4cnc5[nH]ccc5c4)c3)CC2)=C(c2ccc(Cl)cc2)C1`, “dose-normalised C6 (C6/D)” read 0.333 ± 0.164 µg/mL per mg/kg (UPLC-MS/MS; non-responders, good/moderate prognosis; oral, dose not given, 6 h, normalised to dose per body weight).
Under “adverse event incidence”, `Cc1c(C(=O)O)ccc2c3n(nc12)[C@@H]1[C@H](C3)N(CC2CC2)[C@@]2(C(=O)Nc3cc(Cl)ccc32)[C@H]1c1cccc(Cl)c1F` is recorded as 1.9% (phase Ia trial, measured: Fatigue; cancer patients; oral, dose not given, all patients grade ≥3).
For `Cc1ccc([C@@H]2O[C@H](CO)[C@@H](O)[C@H](O)[C@H]2O)cc1Cc1ccc(-c2ccc(F)cc2)s1`, “urinary calcium excretion change” read 20.7 mg (Japanese type 2 diabetes patients; 25 mg, day 16, 24 h urine collection; reference: baseline).
`CC(C)n1c(Nc2cccnc2)nc2cnc(Nc3ccc(N4CCN(C)CC4)cc3)nc21` — result for “subjects with adverse event”: 7.1% (measured: urine leukocytes positive; healthy male subjects; oral, 150 mg, study, with: rifampin).
`CNC(=O)c1ccc(-c2cnc3ncc(Cc4ccc5ncccc5c4)n3n2)cc1F` — result for “subjects with adverse event”: 0% (healthy human subjects; oral, 200 mg, Diarrhea, grade 3, all causality, with: itraconazole 200 mg/day).
`CC(C(=O)NCC(=O)NCC(CNC(=O)CNC(=O)C(C)N1CCN(CC(=O)[O-])CCN(CC(=O)[O-])CCN(CC(=O)[O-])CC1)(CNC(=O)CNC(=O)C(C)N1CCN(CC(=O)[O-])CCN(CC(=O)[O-])CCN(CC(=O)[O-])CC1)CNC(=O)CNC(=O)C(C)N1CCN(CC(=O)[O-])CCN(CC(=O)[O-])CCN(CC(=O)[O-])CC1)N1CCN(CC(=O)[O-])CCN(CC(=O)[O-])CCN(CC(=O)[O-])CC1.[Gd+3].[Gd+3].[Gd+3].[Gd+3]` (centres unmarked): “cumulative urinary excretion” 99.5% (ICP-MS; cynomolgus monkey; dose not given, 2 d, mass balance group; reference: dose).
`CCc1nc(C(N)=O)c(Nc2ccc(N3CCC(N4CCN(C)CC4)CC3)c(OC)c2)nc1NC1CCOCC1` gave an AUC(0-24) of 1050 ng·h/mL (Japanese patients, plasma; oral, 80 mg, cycle 0 day -2, single dose, mean).
The Vz/F of `C[C@@H](N)C1CCN(S(=O)(=O)c2cccc3cnccc23)CC1` is reported as 6020 L (healthy volunteers, fasted, plasma; oral, 75 mg).
`N#Cc1ccc(-c2cnc3ccc(-c4ccc(C(=O)N5CCOCC5)cc4)cn23)cc1` — result for “change in heart rate”: 2.4 bpm (healthy human volunteers; oral, 10 mg, fed, time-averaged; reference: placebo and baseline).
The tumour-to-kidney ratio of `COc1cccc(OC)c1-c1cc(C(=O)NC2(C(=O)O)C3CC4CC(C3)CC2C4)nn1-c1ccc(C(=O)N(C)CCCN(C)CCCN(C)C(=O)CN2CCN(CC(=O)[O-])CCN(CC(=O)[O-])CCN(CC(=O)[O-])CC2)cc1C(C)C.[177Lu+3]` (centres unmarked) is reported as 25.5 (mouse, HT-29 xenograft; 72 h post injection, biodistribution; reference: tumour over kidney uptake).
For `CCCCOc1ccc([C@H]2CC[C@H](CCC)CC2)c(F)c1F`, the median concentration was 5.18 ng/mL (human mother-newborn pairs, maternal serum; male fetuses).
The Ka of `COc1cc(N2CCC3(CCN(C)CC3)CC2)ccc1Nc1ncc(Cl)c(Nc2ccccc2P(C)(C)=O)n1` is reported as 1.06 h⁻¹ (population PK model; human; oral, final model without outliers).

A few entries again:
`CC(C(=O)NCC(=O)NCC(CNC(=O)CNC(=O)C(C)N1CCN(CC(=O)[O-])CCN(CC(=O)[O-])CCN(CC(=O)[O-])CC1)(CNC(=O)CNC(=O)C(C)N1CCN(CC(=O)[O-])CCN(CC(=O)[O-])CCN(CC(=O)[O-])CC1)CNC(=O)CNC(=O)C(C)N1CCN(CC(=O)[O-])CCN(CC(=O)[O-])CCN(CC(=O)[O-])CC1)N1CCN(CC(=O)[O-])CCN(CC(=O)[O-])CCN(CC(=O)[O-])CC1.[Gd+3].[Gd+3].[Gd+3].[Gd+3]` (centres unmarked): “cumulative urinary excretion” 99.5% (ICP-MS; cynomolgus monkey; dose not given, 2 d, mass balance group; reference: dose).
`CCc1nc(C(N)=O)c(Nc2ccc(N3CCC(N4CCN(C)CC4)CC3)c(OC)c2)nc1NC1CCOCC1` gave an AUC(0-24) of 1050 ng·h/mL (Japanese patients, plasma; oral, 80 mg, cycle 0 day -2, single dose, mean).
